Published values from different studies.
Lines come from different studies, so protocols differ. “And” joins repeats or separate records; there may be more than shown. Numbers after ± are the reported error. ≈ marks a conversion by molar mass, not a printed value.
USP13 ZnF-UBD domain: Ubiquitin carboxyl-terminal hydrolase 13, ZnF-UBD domain (USP13, Homo sapiens, UniProt Q92995)
Chain of UniProt Q92995 (whole entry, looked up): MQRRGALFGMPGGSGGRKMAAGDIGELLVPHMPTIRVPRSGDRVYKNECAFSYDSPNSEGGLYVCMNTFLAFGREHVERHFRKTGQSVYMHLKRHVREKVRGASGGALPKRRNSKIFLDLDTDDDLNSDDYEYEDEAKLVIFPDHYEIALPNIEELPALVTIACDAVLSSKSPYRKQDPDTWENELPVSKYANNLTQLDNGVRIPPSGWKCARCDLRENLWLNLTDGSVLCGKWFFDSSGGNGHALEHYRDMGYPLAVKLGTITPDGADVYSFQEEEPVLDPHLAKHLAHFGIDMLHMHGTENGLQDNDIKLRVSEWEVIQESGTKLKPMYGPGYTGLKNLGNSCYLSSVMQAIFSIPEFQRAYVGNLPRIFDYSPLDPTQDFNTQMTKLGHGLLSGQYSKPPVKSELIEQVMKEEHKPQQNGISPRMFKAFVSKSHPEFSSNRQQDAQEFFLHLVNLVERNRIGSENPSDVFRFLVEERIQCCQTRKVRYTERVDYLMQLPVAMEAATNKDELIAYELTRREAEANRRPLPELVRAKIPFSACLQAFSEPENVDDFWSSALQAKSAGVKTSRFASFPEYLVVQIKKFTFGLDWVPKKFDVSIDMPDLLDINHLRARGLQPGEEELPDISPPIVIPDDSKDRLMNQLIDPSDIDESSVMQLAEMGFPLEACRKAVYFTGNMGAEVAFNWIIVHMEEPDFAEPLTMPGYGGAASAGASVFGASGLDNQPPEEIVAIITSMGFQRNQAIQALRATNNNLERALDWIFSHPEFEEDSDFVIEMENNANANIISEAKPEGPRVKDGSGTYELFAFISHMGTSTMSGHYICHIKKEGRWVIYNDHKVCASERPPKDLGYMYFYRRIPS
Chain of UniProt O14965 (whole entry, looked up): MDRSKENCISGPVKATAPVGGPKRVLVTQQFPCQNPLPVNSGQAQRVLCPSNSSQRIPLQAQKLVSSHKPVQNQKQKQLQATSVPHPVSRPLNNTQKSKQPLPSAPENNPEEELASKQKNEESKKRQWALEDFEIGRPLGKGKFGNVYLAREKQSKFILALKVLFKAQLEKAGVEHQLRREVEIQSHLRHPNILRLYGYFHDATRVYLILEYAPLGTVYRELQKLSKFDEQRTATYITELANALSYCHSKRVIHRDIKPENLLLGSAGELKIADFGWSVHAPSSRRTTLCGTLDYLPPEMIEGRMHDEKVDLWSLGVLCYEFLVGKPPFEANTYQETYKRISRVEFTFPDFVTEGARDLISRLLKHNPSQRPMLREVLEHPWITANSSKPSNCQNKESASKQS

CCN(C)C(=O)Oc1cccc([C@H](C)N(C)C)c1 — Km (H+/organic cation antiporter; cell uptake; hCMEC/D3): 91.7 µM
CC1=NN(c2ccc(C)cc2)C(=O)C1=NNc1ccc(S(N)(=O)=O)cc1 — glucose uptake (Saccharomyces cerevisiae; 50 µg/mL): 56.6%
CN1CCC[C@@H]1CCO[C@](C)(c1ccccc1)c1ccc(Cl)cc1 — Km (H+/organic cation antiporter; cell uptake; hCMEC/D3): 12.1 µM
CC1=NN(c2ccc(Cl)cc2)C(=O)C1=NNc1ccc(S(N)(=O)=O)cc1 — glucose uptake (Saccharomyces cerevisiae; 500 µg/mL): 34.3%
CN[C@H](CC(C)C)C(=O)N[C@H]1C(=O)N[C@@H](CC(N)=O)C(=O)N[C@H]2C(=O)N[C@H]3C(=O)N[C@H](C(=O)N[C@H](C(=O)O)c4cc(O)cc(O)c4-c4cc3ccc4O)[C@H](O)c3ccc(c(Cl)c3)Oc3cc2cc(c3O[C@@H]2O[C@H](CO)[C@@H](O)[C@H](O)[C@H]2O[C@H]2C[C@](C)(N)[C@H](O)[C@H](C)O2)Oc2ccc(cc2Cl)[C@H]1O — MBC (Streptococcus pyogenes; broth microdilution): 2 mg/L (≈ 1.38 µM)
c1coc(-c2n[nH]cc2-c2ccnc3ccccc23)c1 — log2 fold change (SAK1 (Candida albicans); kinase binding, MIB/MS competition; Candida albicans lysate; 1 µM; relative to: DMSO): -0.06
O=C(O)CNC(=O)Cc1ccccc1 — sarcomere length (ventricular cardiomyocytes, C57BL/6 mouse; dose not given, 0.724 s): 1.72 µm
CCn1cc(-c2cc(Cn3ccoc3=N)cc3c2CCN([C@@H](C)c2cc(OC)ccn2)C3=O)c(C(F)(F)F)n1 — EC50 (Capan-2; cell growth, inhibitor; 120 h): > 30 µM
O=C(/C=C/C=C/C=C/C1CCCCC1)NC1=C[C@@](O)(/C=C/C=C/C=C/C(=O)NC2=C(O)CCC2=O)[C@@H]2O[C@@H]2C1=O — GI50 (snu410; cell growth, inhibitor, CellTiter-Glo luminescence; 78 h; relative to: day 0 cell count): 18.9 µM
O=C1CC2(CCCC2)CC(=O)N1CCCCN1CCN(c2ncccn2)CC1 — Km (H+/organic cation antiporter; cell uptake; hCMEC/D3): 15.4 µM
CC[S+]([O-])c1nc(-c2ccccc2)cc(C(F)(F)F)n1 (stereo not drawn) — cells with nuclear reporter (importin alpha/beta-1; cMyc nuclear import, high content imaging; HeLa Kyoto reporter; 5 µM, 2 h): 44.6% and 47% and 46.4% and 30.5%
NC(=O)C1(N2CCCCC2)CCN(CCCC(=O)c2ccc(F)cc2)CC1 — Vmax (H+/organic cation antiporter; cell uptake; hCMEC/D3): 2040 pmol/min/mg protein
NC(=O)c1cnc2[nH]ccc2c1N[C@@H]1[C@@H]2CC3C[C@H]1C[C@@](O)(C3)C2 — total memory T-cell change (flow cytometry; Japanese healthy men, blood; oral, 100 mg twice daily, 72 h after day 7 dose; relative to: baseline): -0.93%
CC(C)NCC(O)c1ccc(O)c(O)c1 (stereo not drawn) — sarcomere length (mouse ventricular cardiomyocytes; dose not given, 0.003 s): 1.8 µm
CCCCN1CCCCC1C(=O)Nc1c(C)cccc1C (stereo not drawn) — Vmax (H+/organic cation antiporter; cell uptake; hCMEC/D3): 641 pmol/min/mg protein
O=C(O)CCC(=O)Nc1ccccc1 — Kd (USP13 ZnF-UBD domain): 872 µM
COc1cnc2cccc(N3CCc4c(cc(Cn5ccnc5C)cc4-c4cn(C)nc4C(F)(F)F)C3=O)c2c1 — EC50 (Capan-2; cell growth, inhibitor; 120 h): 26.2 µM
CC1=NN(c2cc(Cl)ccc2Cl)C(=O)C1=NNc1ccc(S(N)(=O)=O)cc1 — glucose uptake (Saccharomyces cerevisiae; 10 µg/mL): 44.891 ± 0.000999%
O=C(O)CCc1nccs1 — Kd (USP13 ZnF-UBD domain): 547 µM
Cc1cc(OC(C)C)ccc1C(=O)C(C)(C)NC(=O)c1sccc1C — EC50 (Botrytis cinerea; appressorium formation; B05.10; 9 h, 20 °C): 0.04 mg/L
C=CCN1C[C@H](C(=O)N(CCCN(C)C)C(=O)NCC)C[C@@H]2c3cccc4[nH]cc(c34)C[C@H]21 — Km (H+/organic cation antiporter; cell uptake; hCMEC/D3): 74.1 µM
Cn1cc(-c2ccc(-c3cncc(Cl)c3N3CCC4(CCNC4=O)CC3)cc2)cn1 — log2 fold change (COLO 205; gene expression, microarray, measured: FOSL1 mRNA; concentration not given, 6 h; relative to: untreated cells): 1.41
CN1C2CCCC1CC(NC(=O)c1nn(C)c3ccccc13)C2 (stereo not drawn) — Vmax (H+/organic cation antiporter; cell uptake; hCMEC/D3): 1110 pmol/min/mg protein
CC(=O)NC[C@H]1CN(c2ccc(N3CCOCC3)c(F)c2)C(=O)O1 — MIC50 (Streptococcus pyogenes; 10 isolates; pH 8.5): 1 mg/L (≈ 2.96 µM)
CC1=NNC(=S)NC(=O)C1/N=N/c1ccc(S(N)(=O)=O)cc1 (stereo not drawn) — glucose uptake (Saccharomyces cerevisiae; 100 µg/mL): 53.8%
CC(C)C[C@H](NC(=O)C[C@H](O)[C@H](CC(C)C)NC(=O)[C@H](Cc1c[nH]cn1)NC(=O)CNC(=O)[C@@H](NC(=O)[C@H](C)NC(=O)[C@H](Cc1c[nH]c2ccccc12)NC(=O)[C@H](CCC(N)=O)NC(=O)[C@@H](Cc1ccccc1)NC(=O)COCCOCCNC(=O)CCC(C(=O)O)N1CCN(CC(=O)O)CCN(CC(=O)O)CC1)C(C)C)C(N)=O (stereo partly drawn) [lutetium-177 labelled] — tissue uptake (BALB/c nu/nu mice, female, lumbar lymph node metastases; intravenous, 50 pmol, 1 h): 13 ± 8 %ID/g
CCCCCOc1ccc(-c2ccc(-c3ccc(C(=O)N[C@H]4C[C@@H](O)[C@@H](OCC[N+](C)(C)C)NC(=O)[C@@H]5[C@@H](O)[C@@H](C)CN5C(=O)[C@H]([C@@H](C)O)NC(=O)[C@H]([C@H](O)[C@@H](O)c5ccc(O)cc5)NC(=O)[C@@H]5C[C@@H](O)CN5C(=O)[C@H]([C@@H](C)O)NC4=O)cc3)cc2)cc1 — total AUC/MIC for 1 log kill (Candida glabrata; 35315, neutropenic mouse, disseminated candidiasis; dose not given, average 24 h AUC over 7 days): 105
CCn1cc(-c2cc(Cn3ccnc3)cc3c2CCN([C@H](c2cc(OC)ccn2)C2CC2)C3=O)c(C(F)(F)F)n1 — EC50 (HEC-50B; cell growth, inhibitor; 120 h): > 30 µM
CC[C@@H]1[C@H](F)C(=O)N[C@@H]1COc1nccc2cc(C(N)=O)c(OC)cc12 — IC50 (Aurora kinase A (AURKA, Homo sapiens, UniProt O14965); ATP-site binding, ActivX KiNativ profiling; THP-1 cell lysate; Lys2 AurA probe site): 3.7 µM
CCN(CC)CC(=O)Nc1c(C)cccc1C — Km (H+/organic cation antiporter; cell uptake; hCMEC/D3): 218 µM
OC(CCN1CCCCC1)(c1ccccc1)C1CC2C=CC1C2 (stereo not drawn) — power, delta EEG, O2-Pz (resting-state EEG; healthy elderly humans; oral, 2 mg, eyes open, LS mean): 7.8 µV²
Oc1ccccc1-c1n[nH]cc1-c1ccnc2ccccc12 — log2 fold change (RTK1 (Candida albicans); kinase binding, MIB/MS competition; Candida albicans lysate; 10 µM; relative to: DMSO): -0.08
c1ccc(-c2n[nH]cc2-c2ccnc3ccccc23)nc1 — log2 fold change (kinase binding, competitor, MIB/MS competition, measured: PKH2; Candida albicans cell lysate; 100 nM; relative to: DMSO): 1.19

Repeated from above:
Cn1cc(-c2ccc(-c3cncc(Cl)c3N3CCC4(CCNC4=O)CC3)cc2)cn1 — log2 fold change (COLO 205; gene expression, microarray, measured: FOSL1 mRNA; concentration not given, 6 h; relative to: untreated cells): 1.41
CN1C2CCCC1CC(NC(=O)c1nn(C)c3ccccc13)C2 (stereo not drawn) — Vmax (H+/organic cation antiporter; cell uptake; hCMEC/D3): 1110 pmol/min/mg protein
CC(=O)NC[C@H]1CN(c2ccc(N3CCOCC3)c(F)c2)C(=O)O1 — MIC50 (Streptococcus pyogenes; 10 isolates; pH 8.5): 1 mg/L (≈ 2.96 µM)
